Results of several laboratories.
Several values in a cell are separate wells, animals, samples, runs or records. ± marks the error that the study gave.
KDM1A: Lysine-specific histone demethylase 1A (KDM1A, Homo sapiens, UniProt O60341)
Rhomboid protease AarA: Rhomboid protease AarA (Providencia stuartii, UniProt P46116)
Chain of UniProt Q16539 (whole entry, looked up): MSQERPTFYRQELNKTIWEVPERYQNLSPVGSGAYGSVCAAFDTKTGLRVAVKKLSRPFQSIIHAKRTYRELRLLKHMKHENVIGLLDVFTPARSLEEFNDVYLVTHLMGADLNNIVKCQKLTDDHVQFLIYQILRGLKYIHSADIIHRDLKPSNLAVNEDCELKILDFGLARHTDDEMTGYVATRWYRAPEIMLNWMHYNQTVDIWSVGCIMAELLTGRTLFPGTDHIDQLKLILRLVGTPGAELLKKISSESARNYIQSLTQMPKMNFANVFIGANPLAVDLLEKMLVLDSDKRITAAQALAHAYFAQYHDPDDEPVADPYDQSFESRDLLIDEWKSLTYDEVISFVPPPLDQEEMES
Chain of UniProt P46116 (whole entry, looked up): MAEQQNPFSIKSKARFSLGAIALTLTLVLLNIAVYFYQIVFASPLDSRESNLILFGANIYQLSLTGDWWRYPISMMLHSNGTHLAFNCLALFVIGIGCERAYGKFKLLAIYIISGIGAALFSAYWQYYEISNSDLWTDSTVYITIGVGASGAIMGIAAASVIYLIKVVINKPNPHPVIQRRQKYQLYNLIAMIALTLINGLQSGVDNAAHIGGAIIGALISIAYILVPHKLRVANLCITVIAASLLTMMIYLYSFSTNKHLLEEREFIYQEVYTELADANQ
Chain of UniProt O75417 (whole entry, looked up): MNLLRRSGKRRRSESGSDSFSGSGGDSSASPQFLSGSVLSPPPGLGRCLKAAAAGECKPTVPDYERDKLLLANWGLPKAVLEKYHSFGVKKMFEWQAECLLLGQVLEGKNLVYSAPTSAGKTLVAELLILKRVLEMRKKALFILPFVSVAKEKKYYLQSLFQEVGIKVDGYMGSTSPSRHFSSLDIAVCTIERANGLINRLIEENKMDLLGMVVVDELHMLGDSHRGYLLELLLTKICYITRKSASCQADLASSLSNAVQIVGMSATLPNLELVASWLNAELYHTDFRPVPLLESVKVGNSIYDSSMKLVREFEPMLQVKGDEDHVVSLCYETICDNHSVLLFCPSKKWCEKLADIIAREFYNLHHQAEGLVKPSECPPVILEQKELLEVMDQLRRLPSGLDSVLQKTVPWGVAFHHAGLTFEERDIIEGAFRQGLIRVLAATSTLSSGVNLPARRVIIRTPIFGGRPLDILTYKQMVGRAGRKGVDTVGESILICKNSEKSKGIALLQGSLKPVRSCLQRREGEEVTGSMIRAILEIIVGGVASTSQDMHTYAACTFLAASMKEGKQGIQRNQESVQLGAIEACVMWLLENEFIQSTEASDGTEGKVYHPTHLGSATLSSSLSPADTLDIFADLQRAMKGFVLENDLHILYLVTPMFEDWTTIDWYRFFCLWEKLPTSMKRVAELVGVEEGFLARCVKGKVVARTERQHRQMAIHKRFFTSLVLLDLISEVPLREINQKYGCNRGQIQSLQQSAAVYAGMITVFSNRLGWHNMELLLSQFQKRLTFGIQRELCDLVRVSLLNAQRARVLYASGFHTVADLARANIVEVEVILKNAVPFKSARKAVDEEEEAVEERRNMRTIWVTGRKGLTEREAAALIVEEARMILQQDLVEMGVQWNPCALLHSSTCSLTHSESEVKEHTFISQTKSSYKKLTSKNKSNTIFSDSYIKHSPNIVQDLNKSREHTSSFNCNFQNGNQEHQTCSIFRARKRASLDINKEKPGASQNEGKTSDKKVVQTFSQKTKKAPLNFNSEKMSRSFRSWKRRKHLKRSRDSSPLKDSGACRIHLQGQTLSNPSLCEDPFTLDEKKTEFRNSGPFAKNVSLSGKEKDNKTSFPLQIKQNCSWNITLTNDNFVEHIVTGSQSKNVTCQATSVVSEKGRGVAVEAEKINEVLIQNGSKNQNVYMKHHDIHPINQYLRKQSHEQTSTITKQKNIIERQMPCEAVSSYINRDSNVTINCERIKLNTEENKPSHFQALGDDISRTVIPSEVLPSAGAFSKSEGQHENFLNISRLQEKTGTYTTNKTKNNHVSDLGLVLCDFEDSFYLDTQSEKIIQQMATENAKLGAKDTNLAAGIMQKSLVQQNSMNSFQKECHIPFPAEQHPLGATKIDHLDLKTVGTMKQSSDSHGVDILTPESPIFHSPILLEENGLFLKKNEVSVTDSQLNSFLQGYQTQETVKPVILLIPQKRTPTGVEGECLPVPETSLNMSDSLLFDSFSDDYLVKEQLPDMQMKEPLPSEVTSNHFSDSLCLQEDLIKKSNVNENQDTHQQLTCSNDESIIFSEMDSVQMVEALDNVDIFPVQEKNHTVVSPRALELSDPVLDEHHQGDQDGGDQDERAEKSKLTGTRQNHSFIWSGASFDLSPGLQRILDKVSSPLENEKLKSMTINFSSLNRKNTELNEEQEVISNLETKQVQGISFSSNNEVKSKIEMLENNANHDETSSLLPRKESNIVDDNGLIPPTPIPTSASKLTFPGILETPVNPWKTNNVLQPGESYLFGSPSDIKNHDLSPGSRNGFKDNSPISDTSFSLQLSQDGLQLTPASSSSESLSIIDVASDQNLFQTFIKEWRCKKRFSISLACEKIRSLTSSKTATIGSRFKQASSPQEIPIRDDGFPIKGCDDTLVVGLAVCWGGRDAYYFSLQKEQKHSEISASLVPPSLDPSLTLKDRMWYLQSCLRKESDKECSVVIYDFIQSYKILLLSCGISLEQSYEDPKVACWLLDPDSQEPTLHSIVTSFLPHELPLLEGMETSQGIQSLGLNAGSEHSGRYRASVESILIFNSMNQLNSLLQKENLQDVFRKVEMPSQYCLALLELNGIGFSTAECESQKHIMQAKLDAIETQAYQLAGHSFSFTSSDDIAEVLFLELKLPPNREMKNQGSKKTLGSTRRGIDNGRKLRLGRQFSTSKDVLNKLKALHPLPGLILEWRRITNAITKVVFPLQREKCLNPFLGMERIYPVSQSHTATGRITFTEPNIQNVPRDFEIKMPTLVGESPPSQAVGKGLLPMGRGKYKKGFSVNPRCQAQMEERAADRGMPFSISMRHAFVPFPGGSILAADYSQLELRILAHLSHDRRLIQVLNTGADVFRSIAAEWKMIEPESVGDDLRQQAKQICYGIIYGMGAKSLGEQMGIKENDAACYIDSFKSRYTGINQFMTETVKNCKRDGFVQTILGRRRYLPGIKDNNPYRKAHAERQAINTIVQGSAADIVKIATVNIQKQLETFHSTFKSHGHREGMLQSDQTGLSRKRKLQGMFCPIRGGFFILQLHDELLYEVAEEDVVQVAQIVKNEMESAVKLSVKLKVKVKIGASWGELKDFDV
Chain of UniProt P10721 (whole entry, unmodified, looked up): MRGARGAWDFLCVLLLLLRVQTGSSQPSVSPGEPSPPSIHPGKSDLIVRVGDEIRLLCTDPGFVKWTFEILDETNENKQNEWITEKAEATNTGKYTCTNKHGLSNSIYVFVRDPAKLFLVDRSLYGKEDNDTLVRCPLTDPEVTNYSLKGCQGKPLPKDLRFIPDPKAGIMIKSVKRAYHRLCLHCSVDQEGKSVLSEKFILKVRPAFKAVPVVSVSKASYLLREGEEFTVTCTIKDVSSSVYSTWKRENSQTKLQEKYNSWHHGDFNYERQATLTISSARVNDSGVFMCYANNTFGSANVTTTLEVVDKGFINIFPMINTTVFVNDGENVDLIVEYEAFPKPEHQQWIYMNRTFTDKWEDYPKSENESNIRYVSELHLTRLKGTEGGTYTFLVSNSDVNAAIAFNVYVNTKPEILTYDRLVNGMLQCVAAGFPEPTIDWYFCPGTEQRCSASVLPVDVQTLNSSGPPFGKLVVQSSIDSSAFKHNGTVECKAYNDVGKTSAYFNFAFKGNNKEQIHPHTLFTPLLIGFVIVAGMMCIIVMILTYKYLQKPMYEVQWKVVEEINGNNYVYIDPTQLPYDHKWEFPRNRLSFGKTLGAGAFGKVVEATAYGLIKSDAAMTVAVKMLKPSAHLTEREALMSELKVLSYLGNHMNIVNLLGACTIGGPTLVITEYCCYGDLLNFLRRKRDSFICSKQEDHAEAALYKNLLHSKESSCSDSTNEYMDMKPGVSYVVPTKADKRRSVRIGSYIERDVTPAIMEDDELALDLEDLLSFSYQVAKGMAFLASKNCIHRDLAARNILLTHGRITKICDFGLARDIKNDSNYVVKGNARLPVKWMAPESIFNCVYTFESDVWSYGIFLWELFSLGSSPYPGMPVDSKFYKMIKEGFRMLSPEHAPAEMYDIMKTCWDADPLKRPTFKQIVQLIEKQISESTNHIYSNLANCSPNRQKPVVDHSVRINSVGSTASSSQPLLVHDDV
Chain of UniProt P12295 (whole entry, looked up): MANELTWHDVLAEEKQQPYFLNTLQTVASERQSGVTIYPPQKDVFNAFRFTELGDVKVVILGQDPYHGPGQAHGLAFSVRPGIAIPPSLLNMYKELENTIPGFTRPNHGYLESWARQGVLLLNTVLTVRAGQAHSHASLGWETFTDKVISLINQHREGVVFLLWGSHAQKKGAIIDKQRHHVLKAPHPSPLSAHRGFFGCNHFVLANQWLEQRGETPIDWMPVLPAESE
Chain of UniProt Q9HB29 (whole entry, looked up): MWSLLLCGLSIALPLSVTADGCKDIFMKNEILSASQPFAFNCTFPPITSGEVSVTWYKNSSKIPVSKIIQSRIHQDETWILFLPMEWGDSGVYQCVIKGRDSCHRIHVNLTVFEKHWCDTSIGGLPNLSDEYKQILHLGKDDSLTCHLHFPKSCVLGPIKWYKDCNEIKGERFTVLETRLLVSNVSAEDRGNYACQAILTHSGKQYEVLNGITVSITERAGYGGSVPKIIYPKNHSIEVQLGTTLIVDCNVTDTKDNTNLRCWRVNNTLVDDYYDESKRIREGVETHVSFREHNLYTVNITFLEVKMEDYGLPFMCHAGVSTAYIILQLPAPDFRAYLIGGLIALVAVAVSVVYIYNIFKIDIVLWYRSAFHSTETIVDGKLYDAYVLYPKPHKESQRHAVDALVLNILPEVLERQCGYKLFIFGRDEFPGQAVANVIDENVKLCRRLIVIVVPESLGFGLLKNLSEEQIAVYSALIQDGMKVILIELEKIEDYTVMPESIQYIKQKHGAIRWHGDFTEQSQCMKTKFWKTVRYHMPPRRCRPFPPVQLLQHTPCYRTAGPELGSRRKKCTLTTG

SMILES	target	test	test system	conditions	how to read	remaining activity
COC(=O)[C@@]1(C)C=C(C(=O)Nc2cccc(C(=O)Nc3ccc(Nc4nccc(-c5cccnc5)n4)c(C)c3)c2)C(=O)CC1	MAPK14 (Homo sapiens, UniProt Q16539)	enzyme activity, inhibitor		0.06097 µM, unit not given	relative to: vehicle	1.03 and 1.05 and 1.22
O=C(Nc1ccccc1)c1cccc([C@@H]2C[C@H]2NC2CCC2)c1 (racemic)	KDM1A	demethylase activity, inhibitor, Amplex Red		0.00823 µM, added: H3K4me2 peptide	relative to: vehicle	92%
CC1C(=O)N(C(=O)c2ccccc2)C1c1ccccc1 (racemic)	Rhomboid protease AarA	substrate cleavage, gel-based		100 µM	relative to: DMSO	107%
CC(C)[C@@H]1NC(=O)[C@H](Cc2ccccc2)NC(=O)CSC[C@@H](C(N)=O)NC(=O)[C@H](CCC(=O)O)NC(=O)[C@H](CO)NC(=O)[C@H](Cc2c[nH]c3cccc(Cl)c23)NC(=O)[C@H](C2CCCCC2)NC(=O)[C@H](C(C)C)NC(=O)[C@H](Cc2ccc(O)cc2)NC(=O)[C@H](CC(=O)O)NC(=O)[C@H](Cc2c[nH]c3ccccc23)NC(=O)[C@H](Cc2ccc(N)nc2)NC(=O)[C@H](Cc2c[nH]c3ccc(Cl)cc23)NC(=O)[C@H](CCC(=O)O)NC1=O	Interleukin-1 receptor-like 2 (IL1RL2, Homo sapiens, UniProt Q9HB29)	reporter gene	HEK-Blue IL-36R	33.33 µM, 6 h, added: IL-36γ 0.3 ng/mL	relative to: stimulated without compound	0.4%
CNC(=O)c1cccc([C@@H]2C[C@H]2NC2CCC2)c1 (racemic)	KDM1A	demethylase activity, inhibitor		0.02286 µM, added: H3K4me2 peptide		94.9%
CCC(NC(=O)c1cccc(-c2ccc(C)nc2N)c1)c1ccnn1C (stereo not drawn)	ung (Escherichia coli, UniProt P12295)	enzyme activity, inhibitor		concentration not given, counter-screen		103 ± 3%
Cc1nnc(NC(=O)c2cc([C@@H]3C[C@H]3NC3CCC3)ccc2Br)s1 (relative stereo)	KDM1A	demethylase activity, inhibitor, Amplex Red		0.2469 µM, added: H3K4me2 peptide	relative to: vehicle	97%
COc1cc(Nc2nc(C)cc(-c3cnn4nc(OC)ccc34)n2)cc(C(F)(F)F)c1	KIT (Homo sapiens, UniProt P10721, V559D/V654A)	inhibitor		1 µM	relative to: control	62%
Cc1ccc(S(=O)(=O)N2C(=O)CC2c2ccccc2)cc1 (stereo not drawn)	Rhomboid protease AarA	enzyme activity, inhibitor		100 µM		77%
COc1ccccc1-c1ccncc1C(=O)Nc1ccc(OCc2ccc(Cl)cc2)nn1	DNA polymerase theta, helicase domain (POLQ, Homo sapiens, UniProt O75417)	ATPase activity, ADP-Glo		0.008 µM	relative to: 0 µM cpd	94%
Cc1cnc(NC(=O)c2cccc([C@@H]3C[C@H]3NC3CCC3)c2)s1	KDM1A	demethylase activity, inhibitor, Amplex Red		0.6667 µM, added: H3K4me2 peptide	relative to: vehicle	35.9%
CN(Cc1cc(C2CC2)on1)C(=O)c1cccc(-c2ccc3c(c2)CCO3)c1	Acetyl-CoA synthetase (Cryptococcus neoformans, UniProt J9VFT1)	enzyme activity, inhibitor, coupled pyrophosphate		100 µM		86.2% and 88.5%

Some of these lines once more:
SMILES	target	test	test system	conditions	how to read	remaining activity
CCC(NC(=O)c1cccc(-c2ccc(C)nc2N)c1)c1ccnn1C (stereo not drawn)	ung (Escherichia coli, UniProt P12295)	enzyme activity, inhibitor		concentration not given, counter-screen		103 ± 3%
